# Published values collected from several papers.
# Lines come from different studies, so protocols differ.
# Organism: Staphylococcus aureus
SMILES,assay,system,setting,scale,quantity,value
CC1(C)S[C@@H]2[C@H](NC(=O)[C@H](N)c3ccccc3)C(=O)N2[C@H]1C(=O)O,"respiratory activity, inhibitor, MTT",ATCC 29213,concentration not given,at least 70% inhibition,lowest effective concentration,16 × MIC
C/C(=C\C(=O)OCCCCCCCCC(=O)O)C[C@@H]1OC[C@H](C[C@@H]2O[C@H]2[C@@H](C)[C@H](C)O)[C@@H](O)[C@H]1O,,"MRSA, BALB/c mice, burn wound infection, skin","topical, 2% ointment twice daily for 7 days, 168 h",,bacterial load,2.5e+06 CFU/g
CC[C@H](C)[C@H](NC(=O)CNC(=O)[C@H](CCC(=O)O)NC(=O)[C@H](CO)NC(=O)[C@@H](NC(=O)[C@H](CCCNC(=N)N)NC(=O)[C@H](CCCCN)NC(=O)[C@H](CCCCN)NC(=O)[C@H](C)NC(=O)[C@H](CO)NC(=O)[C@H](CC(N)=O)NC(=O)[C@H](CCC(=O)O)NC(=O)[C@H](CC(C)C)NC(=O)[C@H](CCCCN)NC(=O)[C@H](CCCCN)NC(=O)[C@H](C)NC(=O)[C@@H](NC(=O)[C@H](CCCCN)NC(=O)[C@H](CO)NC(=O)[C@H](CC(C)C)NC(=O)[C@H](Cc1c[nH]c2ccccc12)NC(=O)[C@@H](N)CO)[C@@H](C)O)[C@@H](C)CC)C(=O)N[C@@H](C)C(=O)N[C@H](C(=O)N[C@@H](C)C(=O)N[C@H](C(=O)N[C@@H](CCC(N)=O)C(=O)NCC(=O)NCC(=O)N1CCC[C@H]1C(=O)N[C@@H](CCCNC(=N)N)C(=O)O)[C@@H](C)CC)[C@@H](C)CC,broth microdilution,"methicillin-susceptible clinical isolates, Mueller-Hinton broth","18 h, 35 °C",,MIC50,16 µg/mL
CCOC(=O)N1CCN(Cn2nc(C34CC5CC(CC(C5)C3)C4)n(-c3ccccc3)c2=S)CC1,,IFO 3060,"200 µg/disc, 24 h, 37 °C",,inhibition zone diameter,17 mm
C[C@H]1c2cccc(O)c2C(=O)C2=C(O)[C@]3(O)C(=O)C(C(N)=O)=C(O)[C@@H](N(C)C)[C@@H]3[C@@H](O)[C@@H]21,checkerboard broth microdilution,ATCC 25923,together with: ranalexin,,FIC index,0.25
CCc1cc(=O)c2c(OCC3CO3)c3ccoc3c(OC)c2o1 (stereo not drawn),"microbial growth, broth dilution",NCTC4163,19 h,,MIC,> 256 µg/mL
COc1cc(C=Cc2cc(-c3ccccc3)nc(O)n2)ccc1O,"microbial growth, disc diffusion",ATCC29213,500 µg/mL,,inhibition zone,11.3 mm
CO/N=C(\C(=O)N[C@@H]1C(=O)N2C(C(=O)O)=C(CSc3nc(=O)c(=O)[nH]n3C)CS[C@H]12)c1csc(N)n1,checkerboard broth microdilution,clinical isolate 21-99,together with: magainin II,,FIC index,0.25
Oc1ccc(-c2nc(-c3ccc(Oc4ccc(C(F)(F)F)cc4)cc3)no2)cc1,survival,"ATCC 27660 MRSA, mouse, peritonitis","intravenous, two doses post-infection",,ED50,40 mg/kg
C[C@@H](O)[C@H]1C(=O)N2C(C(=O)O)=C(S[C@@H]3CN[C@H](C(=O)N(C)C)C3)[C@H](C)[C@H]12,checkerboard broth microdilution,methicillin-susceptible isolate 56-96,together with: magainin II,,FIC index,0.375
CC(C)c1ccc(-n2sc3ccccc3c2=O)cc1,,,panel of 28 strains,,MIC,≤ 2 µg/mL
CC[C@H]1OC(=O)[C@H](C)[C@@H](O[C@H]2C[C@@](C)(OC)[C@@H](O)[C@H](C)O2)[C@H](C)[C@@H](O[C@@H]2O[C@H](C)C[C@H](N(C)C)[C@H]2O)[C@](C)(OC)C[C@@H](C)C(=O)[C@H](C)[C@@H](O)[C@]1(C)O,checkerboard broth microdilution,clinical isolate 15-99,together with: magainin II,,FIC index,0.75
CC[C@H]1OC(=O)[C@H](C)[C@@H](O[C@H]2C[C@@](C)(OC)[C@@H](O)[C@H](C)O2)[C@H](C)[C@@H](O[C@@H]2O[C@H](C)C[C@H](N(C)C)[C@H]2O)[C@](C)(O)C[C@@H](C)C(=O)[C@H](C)[C@@H](O)[C@]1(C)O,,"hospitalized pneumonia patients, clinical isolates",Fine score 70 or more,,susceptible isolates,38.5%
COc1ccc(C=Nc2ncn[nH]2)cc1,"microbial growth, broth dilution",ATCC29213,,,MIC,> 256 µg/mL
CCc1cc(=O)c2c(OCC(O)CN3CCOCC3)c3ccoc3c(OC)c2o1 (stereo not drawn),"microbial growth, broth dilution",ATCC25,19 h,,MIC,> 256 µg/mL
